# Published values pooled from the literature.
# Each numbered part is a random draw from the data of one study; scales do not carry over between parts.
# UniProt Q59H18, sequence (whole entry, looked up): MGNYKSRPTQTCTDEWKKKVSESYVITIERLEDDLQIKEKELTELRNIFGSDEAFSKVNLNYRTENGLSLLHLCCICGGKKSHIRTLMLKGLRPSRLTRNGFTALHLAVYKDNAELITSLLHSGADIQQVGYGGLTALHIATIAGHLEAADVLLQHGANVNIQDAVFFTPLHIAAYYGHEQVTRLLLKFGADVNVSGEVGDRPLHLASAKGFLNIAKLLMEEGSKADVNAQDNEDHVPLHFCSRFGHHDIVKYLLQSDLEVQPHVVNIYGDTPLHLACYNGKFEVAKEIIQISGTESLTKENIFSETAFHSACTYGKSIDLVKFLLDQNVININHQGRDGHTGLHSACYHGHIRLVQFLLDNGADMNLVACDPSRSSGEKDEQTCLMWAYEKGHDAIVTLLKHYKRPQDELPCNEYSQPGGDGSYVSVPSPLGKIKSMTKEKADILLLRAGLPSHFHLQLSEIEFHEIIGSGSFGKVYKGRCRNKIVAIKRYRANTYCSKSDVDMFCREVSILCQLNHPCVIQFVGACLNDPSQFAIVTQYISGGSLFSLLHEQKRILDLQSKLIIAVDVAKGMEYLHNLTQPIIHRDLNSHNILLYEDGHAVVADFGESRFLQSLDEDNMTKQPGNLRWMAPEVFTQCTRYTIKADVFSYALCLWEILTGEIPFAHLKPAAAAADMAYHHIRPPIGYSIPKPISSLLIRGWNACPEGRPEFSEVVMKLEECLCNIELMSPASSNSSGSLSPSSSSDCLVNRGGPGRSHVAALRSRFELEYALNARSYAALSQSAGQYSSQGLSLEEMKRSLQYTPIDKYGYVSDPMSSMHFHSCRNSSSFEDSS
# UniProt O15075, sequence (whole entry, looked up): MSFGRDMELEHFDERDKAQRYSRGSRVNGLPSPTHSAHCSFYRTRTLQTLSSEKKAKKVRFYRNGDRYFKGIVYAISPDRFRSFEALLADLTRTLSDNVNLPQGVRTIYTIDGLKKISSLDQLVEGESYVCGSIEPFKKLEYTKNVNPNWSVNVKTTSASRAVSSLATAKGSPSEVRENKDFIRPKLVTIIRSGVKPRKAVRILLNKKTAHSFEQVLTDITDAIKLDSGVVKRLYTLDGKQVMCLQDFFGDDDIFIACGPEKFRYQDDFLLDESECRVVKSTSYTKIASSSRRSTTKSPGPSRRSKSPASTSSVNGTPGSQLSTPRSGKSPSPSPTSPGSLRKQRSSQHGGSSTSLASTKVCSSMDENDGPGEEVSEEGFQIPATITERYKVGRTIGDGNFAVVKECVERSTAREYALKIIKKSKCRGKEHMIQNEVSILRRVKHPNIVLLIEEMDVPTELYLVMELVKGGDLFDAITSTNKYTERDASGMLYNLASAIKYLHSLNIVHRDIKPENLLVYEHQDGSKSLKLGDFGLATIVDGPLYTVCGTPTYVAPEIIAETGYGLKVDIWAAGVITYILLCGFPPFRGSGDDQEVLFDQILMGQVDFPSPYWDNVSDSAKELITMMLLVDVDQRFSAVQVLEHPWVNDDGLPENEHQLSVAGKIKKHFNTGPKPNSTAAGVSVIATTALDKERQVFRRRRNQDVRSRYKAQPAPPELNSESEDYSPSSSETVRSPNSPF
# UniProt P42336, sequence (whole entry, unmodified, looked up): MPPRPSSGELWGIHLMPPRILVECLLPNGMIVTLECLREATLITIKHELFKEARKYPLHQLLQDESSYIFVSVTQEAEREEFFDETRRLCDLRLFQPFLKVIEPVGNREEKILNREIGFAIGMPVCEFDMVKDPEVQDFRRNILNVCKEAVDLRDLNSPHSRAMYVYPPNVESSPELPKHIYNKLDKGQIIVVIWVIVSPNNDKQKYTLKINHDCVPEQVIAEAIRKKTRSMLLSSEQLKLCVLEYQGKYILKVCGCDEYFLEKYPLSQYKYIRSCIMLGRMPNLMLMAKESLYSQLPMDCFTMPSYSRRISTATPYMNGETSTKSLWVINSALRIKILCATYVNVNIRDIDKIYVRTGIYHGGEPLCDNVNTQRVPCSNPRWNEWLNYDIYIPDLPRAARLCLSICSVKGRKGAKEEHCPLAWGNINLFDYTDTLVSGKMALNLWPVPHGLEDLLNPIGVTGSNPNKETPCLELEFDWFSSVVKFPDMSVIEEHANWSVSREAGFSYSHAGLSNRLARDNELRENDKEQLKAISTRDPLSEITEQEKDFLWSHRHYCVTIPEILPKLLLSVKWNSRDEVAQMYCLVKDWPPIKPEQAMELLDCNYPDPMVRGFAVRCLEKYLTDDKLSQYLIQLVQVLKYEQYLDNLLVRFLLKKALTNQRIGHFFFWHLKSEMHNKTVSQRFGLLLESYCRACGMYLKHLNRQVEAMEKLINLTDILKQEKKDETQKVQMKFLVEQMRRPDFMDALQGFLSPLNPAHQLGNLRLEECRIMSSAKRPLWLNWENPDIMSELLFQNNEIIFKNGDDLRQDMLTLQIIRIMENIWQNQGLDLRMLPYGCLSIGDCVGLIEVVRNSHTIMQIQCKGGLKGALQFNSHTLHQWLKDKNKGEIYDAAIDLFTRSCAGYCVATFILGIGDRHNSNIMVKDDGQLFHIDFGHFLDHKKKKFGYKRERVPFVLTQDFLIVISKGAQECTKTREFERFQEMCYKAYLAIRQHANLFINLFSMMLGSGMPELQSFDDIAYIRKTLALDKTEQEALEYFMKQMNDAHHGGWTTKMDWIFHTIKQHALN
# UniProt P49759, sequence (whole entry, looked up): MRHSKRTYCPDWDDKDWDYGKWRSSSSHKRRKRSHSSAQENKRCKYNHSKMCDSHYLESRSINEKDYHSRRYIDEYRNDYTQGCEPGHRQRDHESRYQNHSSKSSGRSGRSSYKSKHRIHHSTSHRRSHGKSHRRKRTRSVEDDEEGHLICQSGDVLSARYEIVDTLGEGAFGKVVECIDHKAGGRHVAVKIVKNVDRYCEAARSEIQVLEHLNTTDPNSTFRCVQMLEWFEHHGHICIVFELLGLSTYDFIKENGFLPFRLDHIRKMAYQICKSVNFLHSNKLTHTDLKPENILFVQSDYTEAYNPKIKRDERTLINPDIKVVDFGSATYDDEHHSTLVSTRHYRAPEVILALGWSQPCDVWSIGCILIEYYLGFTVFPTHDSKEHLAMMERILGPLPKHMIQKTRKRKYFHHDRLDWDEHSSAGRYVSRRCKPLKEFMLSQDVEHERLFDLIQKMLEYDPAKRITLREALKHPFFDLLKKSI

# Series 1
# SMILES: C[C@@H](c1cccc(C#N)c1)n1cc(Cl)cc(C(N)=O)c1=N
# Concentration: 1 µM
target,assay,remaining binding [%]
"CLK1 (Homo sapiens, UniProt P49759)","cell-free assay, competition with immobilised ligand",100
"PIK3CA (Homo sapiens, UniProt P42336, C420R)","cell-free assay, competition with immobilised ligand",100
"TNNI3K (Homo sapiens, UniProt Q59H18)","cell-free assay, competition with immobilised ligand",100
"LTK (Homo sapiens, UniProt P29376)","cell-free assay, competition with immobilised ligand",94
"DDR1 (Homo sapiens, UniProt Q08345)","cell-free assay, competition with immobilised ligand",88
"Tyrosine-protein kinase ABL1, phosphorylated (ABL1, Homo sapiens, UniProt P00519)","cell-free assay, competition with immobilised ligand",73
"AAK1 (Homo sapiens, UniProt Q2M2I8)",binding,100
"EPHA2 (Homo sapiens, UniProt P29317)","cell-free assay, competition with immobilised ligand",88
"STK3 (Homo sapiens, UniProt Q13188)","cell-free assay, competition with immobilised ligand",96
"LYN (Homo sapiens, UniProt P07948)","cell-free assay, competition with immobilised ligand",80
"NTRK1 (Homo sapiens, UniProt P04629)","cell-free assay, competition with immobilised ligand",100
"EPHB6 (Homo sapiens, UniProt O15197)","cell-free assay, competition with immobilised ligand",100
"DCLK1 (Homo sapiens, UniProt O15075)","cell-free assay, competition with immobilised ligand",98

# Series 2
# Target: ALK tyrosine kinase receptor (ALK, Homo sapiens, UniProt Q9UM73)
# UniProt Q9UM73, sequence (whole entry, looked up): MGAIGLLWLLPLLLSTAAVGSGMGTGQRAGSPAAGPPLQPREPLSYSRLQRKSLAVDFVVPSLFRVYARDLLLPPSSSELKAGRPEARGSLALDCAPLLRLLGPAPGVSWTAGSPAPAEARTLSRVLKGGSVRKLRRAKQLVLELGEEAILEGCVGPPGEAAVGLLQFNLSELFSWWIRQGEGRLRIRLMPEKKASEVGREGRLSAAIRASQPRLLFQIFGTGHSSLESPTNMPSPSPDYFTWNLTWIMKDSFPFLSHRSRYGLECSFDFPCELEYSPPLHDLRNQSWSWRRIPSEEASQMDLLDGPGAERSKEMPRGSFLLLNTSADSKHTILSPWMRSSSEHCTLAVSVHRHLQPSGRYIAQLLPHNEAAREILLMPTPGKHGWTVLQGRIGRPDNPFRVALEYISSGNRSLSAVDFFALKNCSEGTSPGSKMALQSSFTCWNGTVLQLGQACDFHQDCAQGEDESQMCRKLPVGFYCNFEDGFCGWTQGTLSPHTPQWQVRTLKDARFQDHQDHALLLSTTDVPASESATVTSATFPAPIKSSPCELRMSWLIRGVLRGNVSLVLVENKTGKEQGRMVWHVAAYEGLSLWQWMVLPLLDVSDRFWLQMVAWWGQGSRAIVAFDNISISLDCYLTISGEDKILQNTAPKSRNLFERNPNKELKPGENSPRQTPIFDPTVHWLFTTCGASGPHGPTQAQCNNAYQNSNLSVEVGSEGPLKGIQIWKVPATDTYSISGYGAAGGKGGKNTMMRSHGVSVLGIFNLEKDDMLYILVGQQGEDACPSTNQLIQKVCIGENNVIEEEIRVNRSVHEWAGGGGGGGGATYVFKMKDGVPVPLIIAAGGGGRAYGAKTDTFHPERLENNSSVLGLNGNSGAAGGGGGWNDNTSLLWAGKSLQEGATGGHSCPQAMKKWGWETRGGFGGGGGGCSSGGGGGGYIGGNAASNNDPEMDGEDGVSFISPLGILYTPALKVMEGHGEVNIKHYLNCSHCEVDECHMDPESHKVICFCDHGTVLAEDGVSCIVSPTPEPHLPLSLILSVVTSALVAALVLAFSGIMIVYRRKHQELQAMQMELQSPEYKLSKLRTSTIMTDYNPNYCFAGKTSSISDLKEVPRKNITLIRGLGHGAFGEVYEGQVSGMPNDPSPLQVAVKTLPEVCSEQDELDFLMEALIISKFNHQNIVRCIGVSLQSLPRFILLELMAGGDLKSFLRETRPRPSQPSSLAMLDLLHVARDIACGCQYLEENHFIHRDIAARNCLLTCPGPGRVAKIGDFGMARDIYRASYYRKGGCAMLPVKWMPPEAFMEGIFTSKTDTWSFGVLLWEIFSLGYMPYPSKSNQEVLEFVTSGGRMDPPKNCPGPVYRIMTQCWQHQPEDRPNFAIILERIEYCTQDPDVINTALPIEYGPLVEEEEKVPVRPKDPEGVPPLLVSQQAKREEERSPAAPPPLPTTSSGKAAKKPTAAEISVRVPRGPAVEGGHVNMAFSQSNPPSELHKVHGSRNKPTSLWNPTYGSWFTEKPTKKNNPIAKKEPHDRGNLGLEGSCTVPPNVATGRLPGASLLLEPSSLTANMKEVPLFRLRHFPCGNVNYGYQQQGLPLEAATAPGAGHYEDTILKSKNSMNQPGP
# Effect on: enzyme activity
# Mode: inhibitor
# Concentration: 0.5 µM
# Reference: control
Structure (SMILES),remaining activity
Cc1ccc(S(=O)(=O)/C=C/C#N)cc1,103%
O=C1Cc2c([nH]c3ccc(Br)cc23)-c2ccccc2N1,90.8%
c1ccc(-c2n[nH]c3c2oc2ccccc23)cc1,95.9%
c1ccc2c(-c3ccncc3)c[nH]c2c1,106%
CN1CCN(c2ccc3nc(-c4c(N)c5c(F)cccc5[nH]c4=O)[nH]c3c2)CC1,80.5%
Cc1cc(Nc2cc(N3CCN(C)CC3)nc(Sc3ccc(NC(=O)C4CC4)cc3)n2)[nH]n1,91.5%
O=c1cc(N2CCOCC2)oc2c(-c3ccccc3)cccc12,92.3%
CN(C)S(=O)(=O)c1ccc2c(c1)/C(=C/c1cc3c([nH]1)CCCC3)C(=O)N2,43.6%
Oc1cccc(-c2nc(N3CCOCC3)c3oc4ncccc4c3n2)c1,90.5%
O=C1NC(=O)c2c1c1c3ccccc3[nH]c1c1[nH]c3cc(Br)ccc3c21,94%
O=C1Nc2ccc(Br)cc2/C1=C/c1cc2c([nH]1)CCCC2,88.5%
COc1cccc(-c2cc(=O)c3ccccc3o2)c1N,84.1%
COc1ccc2c(c1)c(C1=C(c3c[nH]c4ccccc34)C(=O)NC1=O)cn2CCCN(C)C,96%
O=C1Nc2ccccc2/C1=C\c1c(Cl)[nH]c2ccccc12,97.9%
O=C(c1cc2cc(O)ccc2[nH]1)c1cc2cc(O)ccc2[nH]1,97%
O=Nc1c(-c2c(O)[nH]c3cc(Br)ccc23)[nH]c2ccccc12,88.5%
O=C1NC(=O)c2c1c1c3ccccc3[nH]c1n1cncc21,84.6%
N#Cc1cnc2cnc(NCc3cccnc3)cc2c1Nc1ccc(F)c(Cl)c1,107%

# Series 3
# Cell line: HaCaT
# Concentration: 100 µM
# Time: 36 h
Structure (SMILES),viability [%]
O=C(c1ccc(OCCN2CCCCC2)cc1)c1c(-c2ccc(O)cc2)sc2cc(O)ccc12,7.06
COc1cc(NS(C)(=O)=O)ccc1Nc1c2ccccc2nc2ccccc12,14.2
CCCc1cc(=O)[nH]c(=S)[nH]1,90.8
CC(=O)OC/C=C(C)/C=C/C=C(C)/C=C/C1=C(C)CCCC1(C)C,82.7
CC[C@]1(O)C[C@H]2CN(CCc3c([nH]c4ccccc34)[C@@](C(=O)OC)(c3cc4c(cc3OC)N(C=O)[C@H]3[C@@](O)(C(=O)OC)[C@H](OC(C)=O)[C@]5(CC)C=CCN6CC[C@]43[C@@H]65)C2)C1,23.5
Cc1cc(/C=C/C#N)cc(C)c1Nc1ccnc(Nc2ccc(C#N)cc2)n1,34
C[C@]12CCC(=O)C=C1CC[C@@H]1[C@@H]2[C@@H](O)C[C@@]2(C)[C@H]1CC[C@]2(O)C(=O)CO,96
O=C(O)CCn1c2c(c3ccccc31)C[C@H](NS(=O)(=O)c1ccc(F)cc1)CC2,91.8

# Series 4
# SMILES: CC(C)n1cnc(-c2ccc(F)cc2)c1-c1ncc(C(=O)Nc2ccc(N3CCN(C)CC3)cc2)[nH]1
assay,test system,conditions,patients with TEAE
phase 2a trial,idiopathic pulmonary fibrosis patients,"oral, 60 mg once daily, CK-MB increased, grade 5",0%
refers to: skin papilloma,idiopathic pulmonary fibrosis patients,30 mg once daily,0%
phase 2a trial,patients with idiopathic pulmonary fibrosis,"30 mg once daily, nervous system disorders SOC, grade 1",0%
phase 2a trial,patients with idiopathic pulmonary fibrosis,"60 mg once daily, atopic dermatitis, grade 3",0%
phase 2a trial,idiopathic pulmonary fibrosis patients,"oral, 30 mg once daily, LDL increased, grade 1",0%
phase 2a trial,patients with idiopathic pulmonary fibrosis,"dose not given, renal and urinary disorders SOC, grade 2, all arms",0%
phase 2a trial,idiopathic pulmonary fibrosis patients,"oral, dose not given, ESR increased, grade 1, all arms",2%
phase 2a trial,patients with idiopathic pulmonary fibrosis,"30 mg once daily, skin papilloma, maximum intensity grade 4",0%
refers to: atopic dermatitis,idiopathic pulmonary fibrosis patients,60 mg once daily,0%
phase 2a trial,patients with idiopathic pulmonary fibrosis,"dose not given, allergic conjunctivitis, grade 3, all arms",0%
phase 2a trial,idiopathic pulmonary fibrosis patients,"oral, dose not given, CK-MB increased, grade 1, all arms",1%
phase 2a trial,idiopathic pulmonary fibrosis patients,"oral, 60 mg once daily, GLDH increased, grade 3",0%
phase 2a trial,idiopathic pulmonary fibrosis patients,"oral, 60 mg once daily, disc protrusion, grade 1",1%

# Some of these lines once more (series 3):
Structure (SMILES),viability [%]
COc1cc(NS(C)(=O)=O)ccc1Nc1c2ccccc2nc2ccccc12,14.2
CCCc1cc(=O)[nH]c(=S)[nH]1,90.8
CC(=O)OC/C=C(C)/C=C/C=C(C)/C=C/C1=C(C)CCCC1(C)C,82.7
CC[C@]1(O)C[C@H]2CN(CCc3c([nH]c4ccccc34)[C@@](C(=O)OC)(c3cc4c(cc3OC)N(C=O)[C@H]3[C@@](O)(C(=O)OC)[C@H](OC(C)=O)[C@]5(CC)C=CCN6CC[C@]43[C@@H]65)C2)C1,23.5
Cc1cc(/C=C/C#N)cc(C)c1Nc1ccnc(Nc2ccc(C#N)cc2)n1,34
C[C@]12CCC(=O)C=C1CC[C@@H]1[C@@H]2[C@@H](O)C[C@@]2(C)[C@H]1CC[C@]2(O)C(=O)CO,96
